# Measurements gathered from unrelated publications.
# A part holds a random share of what one study measured.

# Block 1
# Target: RNA binding protein fox-1 homolog 2, RRM domain, GST-SBP tag (RBFOX2, Homo sapiens, UniProt O43251-10, residues 100-194)
# Method: RNA Bind-n-Seq
# Molecule type: RNA
# Matrix: in vitro
# Concentration: 365 nM
# Notes: natural RNA segment, single round, ends assumed
# Reference: no-protein control
# Reading: higher = stronger binding
# All sequences stand within: GGGAGUUCUACAGUCCGACGAUC … UGGAAUUCUCGGGUGCCAA
# Target sequence (chain): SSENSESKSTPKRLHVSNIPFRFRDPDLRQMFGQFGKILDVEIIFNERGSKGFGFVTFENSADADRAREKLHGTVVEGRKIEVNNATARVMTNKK
Strand,RBNS enrichment (R)
UUCGUUUGAUUUUUUUUCUGUAAAUGUCUGCACUAAGGGUUUCUUUCAGUUUGCCUUUUAUGUAAAUUUUUUACGUAGCUAUUUUUAUACACUGUAAGCUUUGUUCUGGG,0.489
GAGGGAAGGGGCCUGCCUCCCAGGGAGUCAACAUAGAUGUUCCCCAUGAACAGGGAUUUGACUUUGGAGGCCAACCUGGCCUGGCCUCUGCCCUUUAUCUCACACUCCCU,0.27
UGACUGGUUCACAAAUAUAUCCACAAAAUGUUUGCAUAUGGAAUAAUAGAAGCAUAUAAAACAUUGUAUGUAAAUUGCAUCUUCAUACUAGCAAACAAGUUAACAAAUGA,0.438
CACUGACCUUAACCACAACCAUUAGCCAGAAGAUACUGCAUGCUCCCUUGUGUCUGGAGUAUUCUGUCAUCUGCAAGCCCUGUUCUUACCUCACCUGUCCACGUUCACCA,0.977
UGUGUUUAAGUUCUCGUAUCCUUGGUGGACACGGACACUAAGAAUCAACUAUGUAGUUGAUUUUUUUUUGCCAGAAAUUAUAAGUAUUCUACAAUAAAUCUUUAAAUUUG,0.381
GACCGCAUUUUCUCUUGGUUUCUAAAAGGAAGGGAAUCUUCCCGAUUUUUCUAAGAUGUUGAGUAUUGUGUAAGUAAGCUUUGAGUCUUUGAACCUGAUUGAAAUGCAAA,0.524
UAGUUUGAUUCUGGUUUCCCUCCUACAGUGUGUCCUCCGUCUCUGUGCAGCUCCGUCAUUACCAUAGGGGACUUGGUUUUAGACUCUGAUGAGGAAGAAAAUGGCCAGGG,0.294
UCACAUACAGUACAGACAACCUCAAAAAUCUGUUUAUAUUAGUGUAAAUAGAAAAAUGGUAGACCGCUGUCUAGUUUUCUCCGCAGGCAUUUUUGGGAGUGUAUCUAUAG,0.527
CCCAAGCUGUCCCAGCAAAUGGGCAGGAGGGGCAUGGCCUCUUUUAUAUAUAUAUAUCUAUUUAUUUUAUAUGUGUGUUUGUGAGGAAGAGGAUAUUUGUCAUUUCCUUA,0.594
CCUCAGGUCCCAACUGAAUGUCUGCCAACCCCUGCUCAGGACACUCUUCUUUCCUGGGGCAAGCCAGGAGCUCUCAACAGAGGGAGGACUGGAGGGCAGAUGGAGAAAGC,0.493
GAAUAGUUUUUGAAUACACCCACAUUUUGUACGUUUCCAUGUAAGCUGACAUAGUGUUCUGCCAUGUAAUGUUUAUAGCUGCUGAUGUAUGCACAUUUGGGGGUAUAUCU,0.385
GGCAUGGAACGCAGUGCUCUUCACCGUCUGGCGAGUGCAUGCCAAGAGAGCUAGACAGCAGCAUUACCCACUCUGAAGUUUUCUACAAGAGAGUUGAGUGAAUCUGUUUA,3.57

# Block 2
# Target: Histone acetyltransferase KAT6A, both winged helices, GST fusion (KAT6A, Homo sapiens, UniProt Q92794, residues 1-181)
# Method: protein binding microarray
# Molecule type: double-stranded DNA, one strand shown
# Matrix: in vitro
# Concentration: not given
# Notes: 8-mer, flanks averaged, mean of 2 arrays, mostly near background
# Reference: not given
# Reading: higher = stronger binding
# Target sequence (chain): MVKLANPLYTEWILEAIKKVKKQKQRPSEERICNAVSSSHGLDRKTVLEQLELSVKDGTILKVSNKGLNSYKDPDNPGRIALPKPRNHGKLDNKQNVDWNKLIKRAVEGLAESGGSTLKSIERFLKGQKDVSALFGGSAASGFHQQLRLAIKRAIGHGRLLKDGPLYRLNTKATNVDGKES
Strand,E-score
ACGTAAAT,-0.0264
GCGAATCC,0.0329
TATAGACA,-0.186
ACAGACAA,-0.0782
TGCGTACA,0.0615
AGATTCGG,-0.0835
CAACTTGA,-0.0787
ACTTCGTG,-0.0801
CCTTTTTA,-0.195
AATCCTAG,-0.135
ACCCGACT,0.000695
AGAGTATA,-0.111
ATCCATAG,-0.0506
AAGATAAA,0.00598
CATAGGGA,-0.164
GTCGCATA,0.168
GGATGCTA,-0.108
AACCATCC,-0.0175
TCCAGCGA,-0.116
GACTCGAA,-0.0259
AGACGAGG,-0.192
AGGTGTAG,-0.0794
CCACGAAG,-0.0881
CGAAACCA,0.108

# Block 3
# Target: Interferon regulatory factor 3, full length, phosphomimetic (IRF3, Homo sapiens, UniProt Q14653, residues 1-427, S386D/S396D/S398D/S402D/T404D/S405D)
# Method: protein-binding microarray
# Molecule type: double-stranded DNA, one strand shown
# Matrix: in vitro
# Concentration: 2540 nM top
# Notes: 60-bp whole probe
# Added: salmon DNA 0.4 mg/ml
# Reference: random background probes
# Reading: higher = stronger binding
# All sequences stand within: GCCTAGCAC … GTCTTGATTCGCTTGACGCTGCTG
# Target sequence (chain): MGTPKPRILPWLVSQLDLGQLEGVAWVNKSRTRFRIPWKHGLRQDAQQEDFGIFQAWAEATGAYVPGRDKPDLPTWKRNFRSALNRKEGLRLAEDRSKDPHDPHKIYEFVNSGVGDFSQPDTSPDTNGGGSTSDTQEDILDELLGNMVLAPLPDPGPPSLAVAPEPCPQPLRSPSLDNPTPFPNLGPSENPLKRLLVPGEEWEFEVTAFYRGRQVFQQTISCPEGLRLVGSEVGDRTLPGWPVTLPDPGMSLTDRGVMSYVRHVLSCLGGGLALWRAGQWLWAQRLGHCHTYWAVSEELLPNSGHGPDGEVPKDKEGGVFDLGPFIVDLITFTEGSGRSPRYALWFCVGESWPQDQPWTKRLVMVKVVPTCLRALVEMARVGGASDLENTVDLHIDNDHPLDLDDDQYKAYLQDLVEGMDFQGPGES
Strand,fitted relative affinity [z-score]
TCAATCTTCAAGACTCATACTGTGCTA,0.354
GACGATTTCGGGGCTGGAGACGTGCTA,0.775
TCATTTGTTTCACTTCCTACTGTGCTA,4.25
TACCTTAGGTTTTCTGGTTCCGTGCTA,0.14
GTTGTTTTAAATTCTAATTAGTGCTAG,1.85
GGCGGTTTCCTTCTCCTGACGTGCTAG,10.4
GACGGTTTTCTTTCCCTGACGTGCTAG,4.5
TGTGCTTTCCTGATGGTTCTGTGCTAG,1.39
CACGGACTGCTTCTCCTGACGTGCTAG,-0.346
GACGGTATCGGTTTCGGGGCGTGCTAG,6.65
GACGATATCGGGTATTGAGACGTGCTA,0.0733
TTAGGTCTCATACTGCTTTAGTGCTAG,0.478
TCACCTATAGGTTCAACACTGTGCTAG,0.479
GACAGACTGGGGTTTCGGGACGTGCTA,0.777
TGTTGGTAATTTTGCTATTTGTGCTAG,-0.0433
TGGTCTTTCTGTTTTCTCCAGTGCTAG,3.01
TTAGGAATCGACACTGGGTTAGTGCTA,-0.298
TCATTTACCACATTCTCACTGTGCTAG,2.37
GACGGTATCCATTTCCTGACGTGCTAG,5.35
TTAGGTATCGGATTCGGTTAGTGCTAG,5.27
TCATTTAGAAATTTCTTACTGTGCTAG,1.58

# Block 4
# Target: Prothrombin, mature alpha-thrombin (F2, Homo sapiens, UniProt P00734)
# Method: aptamer microarray, sandwich
# Molecule type: DNA with 2'F-ANA
# Matrix: in vitro
# Concentration: 200 nM
# Notes: whole 15-mer aptamer, many near background
# Added: Cy3 exosite-II aptamer, 400 nM
# Reading: higher = stronger binding
# Strand: GGTTGGTGTGGTTGG
Modification,mean fluorescence intensity [a.u.]
2'F-ANA at 1 2 3 5 6 7 8 14 15,48.4
2'F-ANA at 1 2 3 4 5 6 7 9 10 11 12 14,53.5
2'F-ANA at 1 2 3 8 9 10 11 12 13 14 15,57.5
2'F-ANA at 2 3 5 6 8 9 10 14 15,76.9
2'F-ANA at 1 2 3 4 12 14,86.2
2'F-ANA at 2 3 4 5 6 7 9 11 14 15,54.5
2'F-ANA at 3 5 6 7 8 9 11 12 13 14,60.7
2'F-ANA at 6 7 8 9 10 11,154
2'F-ANA at 1 2 4 7 9 11 13 14,57.9
2'F-ANA at 2 6 7 11 14 15,112
2'F-ANA at 1 5 7 8 9 12 13,81.9
2'F-ANA at 1 4 7 9 10 11 12 13 15,52.8
2'F-ANA at 1 2 3 5 6 7 8 9 10 15,48.3
2'F-ANA at 2 3 5 6 8 10 11 12,58.7
2'F-ANA at 1 2 3 5 8 9 10 11 14 15,61
2'F-ANA at 2 3 4 10 11 12 13 15,271
2'F-ANA at 3 5 7 10 11 12 14,51.4
2'F-ANA at 2 4 5 6 7 10 11 13 14,53.1
2'F-ANA at 2 5 7 8 10 12 14,50.7
2'F-ANA at 1 3 5 6 7 9 11 12 13 15,88.8
2'F-ANA at 1 4 9 10 11 13 15,49.6
2'F-ANA at 1 2 3 4 5 6 8 13 14 15,42.7
2'F-ANA at 5 6 7 8 9 10 11 12 14,45.9
2'F-ANA at 1 4 5 6 7 8 10 12 15,60.6

# Repeated from above (block 3):
Strand,fitted relative affinity [z-score]
GACGGTATCCATTTCCTGACGTGCTAG,5.35
GACGGTATCGGTTTCGGGGCGTGCTAG,6.65
TCATTTGTTTCACTTCCTACTGTGCTA,4.25
GGCGGTTTCCTTCTCCTGACGTGCTAG,10.4
TCATTTAGAAATTTCTTACTGTGCTAG,1.58
TTAGGTATCGGATTCGGTTAGTGCTAG,5.27
GACAGACTGGGGTTTCGGGACGTGCTA,0.777
TGGTCTTTCTGTTTTCTCCAGTGCTAG,3.01
GACGGTTTTCTTTCCCTGACGTGCTAG,4.5
GTTGTTTTAAATTCTAATTAGTGCTAG,1.85
GACGATATCGGGTATTGAGACGTGCTA,0.0733
TCATTTACCACATTCTCACTGTGCTAG,2.37
